Measurements collected from several papers.
Compare with care: the assays were run in different laboratories. ± gives the spread as reported.
Bche: Cholinesterase (Bche, Mus musculus, UniProt Q03311)

Chains of the proteins cited; added tags and fusions are not shown. Residues count along the entry.
UniProt Q03311, whole entry, looked up: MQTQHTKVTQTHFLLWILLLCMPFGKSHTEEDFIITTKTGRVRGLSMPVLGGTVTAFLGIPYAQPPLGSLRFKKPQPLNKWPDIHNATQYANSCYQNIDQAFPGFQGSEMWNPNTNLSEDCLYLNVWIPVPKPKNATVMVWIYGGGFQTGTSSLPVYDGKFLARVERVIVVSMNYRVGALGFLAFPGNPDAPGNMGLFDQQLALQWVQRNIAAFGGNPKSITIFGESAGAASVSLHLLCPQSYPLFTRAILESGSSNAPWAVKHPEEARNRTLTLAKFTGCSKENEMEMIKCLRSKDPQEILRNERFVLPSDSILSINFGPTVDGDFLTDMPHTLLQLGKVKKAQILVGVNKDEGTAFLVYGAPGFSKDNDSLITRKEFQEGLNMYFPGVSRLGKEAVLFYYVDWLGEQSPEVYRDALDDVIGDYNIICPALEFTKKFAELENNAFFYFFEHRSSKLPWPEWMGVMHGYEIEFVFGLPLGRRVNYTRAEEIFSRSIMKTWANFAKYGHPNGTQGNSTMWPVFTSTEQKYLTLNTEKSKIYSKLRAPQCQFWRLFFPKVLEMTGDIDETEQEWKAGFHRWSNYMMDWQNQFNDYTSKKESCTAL
UniProt P22303, 32-614 limits assumed: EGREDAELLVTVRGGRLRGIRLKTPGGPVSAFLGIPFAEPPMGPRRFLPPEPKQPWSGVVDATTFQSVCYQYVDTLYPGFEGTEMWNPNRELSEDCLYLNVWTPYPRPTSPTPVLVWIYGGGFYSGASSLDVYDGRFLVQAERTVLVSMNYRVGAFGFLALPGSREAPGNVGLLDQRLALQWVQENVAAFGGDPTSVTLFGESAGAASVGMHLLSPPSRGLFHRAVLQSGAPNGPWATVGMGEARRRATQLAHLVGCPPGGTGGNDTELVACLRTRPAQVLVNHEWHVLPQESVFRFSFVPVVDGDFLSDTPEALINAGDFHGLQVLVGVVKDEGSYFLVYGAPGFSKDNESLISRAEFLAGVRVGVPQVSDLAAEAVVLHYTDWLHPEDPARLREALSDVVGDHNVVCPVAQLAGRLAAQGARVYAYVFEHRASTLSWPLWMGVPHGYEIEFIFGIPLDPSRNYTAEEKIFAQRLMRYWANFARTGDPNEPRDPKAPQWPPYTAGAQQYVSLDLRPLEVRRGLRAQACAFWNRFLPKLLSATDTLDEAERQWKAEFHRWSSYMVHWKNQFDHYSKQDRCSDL
UniProt P33535, whole entry: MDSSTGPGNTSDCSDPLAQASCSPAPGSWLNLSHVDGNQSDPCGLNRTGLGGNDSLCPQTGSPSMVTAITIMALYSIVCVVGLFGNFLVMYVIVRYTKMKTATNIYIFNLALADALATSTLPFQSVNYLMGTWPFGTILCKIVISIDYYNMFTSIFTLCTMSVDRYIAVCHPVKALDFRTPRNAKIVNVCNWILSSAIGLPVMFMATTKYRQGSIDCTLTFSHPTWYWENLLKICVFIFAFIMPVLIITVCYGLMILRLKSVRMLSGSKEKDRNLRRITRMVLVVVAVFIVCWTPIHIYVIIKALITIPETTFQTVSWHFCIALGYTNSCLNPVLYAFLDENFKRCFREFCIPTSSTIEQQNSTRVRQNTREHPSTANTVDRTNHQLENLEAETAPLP
UniProt P9WKD3, 41-307 limits assumed: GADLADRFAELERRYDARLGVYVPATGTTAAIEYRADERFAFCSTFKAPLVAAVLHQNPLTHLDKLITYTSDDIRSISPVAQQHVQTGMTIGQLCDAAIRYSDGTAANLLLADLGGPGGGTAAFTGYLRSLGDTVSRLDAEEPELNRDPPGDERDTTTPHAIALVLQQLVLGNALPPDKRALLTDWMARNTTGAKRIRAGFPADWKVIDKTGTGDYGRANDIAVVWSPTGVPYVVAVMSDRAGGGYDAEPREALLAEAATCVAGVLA
UniProt O00167, 253-538 limits assumed: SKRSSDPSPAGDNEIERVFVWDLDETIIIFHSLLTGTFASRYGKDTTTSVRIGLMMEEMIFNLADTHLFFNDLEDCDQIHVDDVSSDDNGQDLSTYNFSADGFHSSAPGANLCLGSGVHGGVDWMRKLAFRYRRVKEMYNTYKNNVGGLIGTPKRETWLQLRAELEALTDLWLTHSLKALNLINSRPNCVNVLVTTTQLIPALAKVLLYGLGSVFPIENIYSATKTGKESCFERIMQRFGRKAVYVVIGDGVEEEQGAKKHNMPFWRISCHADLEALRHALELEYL
UniProt Q9GZQ6, whole entry: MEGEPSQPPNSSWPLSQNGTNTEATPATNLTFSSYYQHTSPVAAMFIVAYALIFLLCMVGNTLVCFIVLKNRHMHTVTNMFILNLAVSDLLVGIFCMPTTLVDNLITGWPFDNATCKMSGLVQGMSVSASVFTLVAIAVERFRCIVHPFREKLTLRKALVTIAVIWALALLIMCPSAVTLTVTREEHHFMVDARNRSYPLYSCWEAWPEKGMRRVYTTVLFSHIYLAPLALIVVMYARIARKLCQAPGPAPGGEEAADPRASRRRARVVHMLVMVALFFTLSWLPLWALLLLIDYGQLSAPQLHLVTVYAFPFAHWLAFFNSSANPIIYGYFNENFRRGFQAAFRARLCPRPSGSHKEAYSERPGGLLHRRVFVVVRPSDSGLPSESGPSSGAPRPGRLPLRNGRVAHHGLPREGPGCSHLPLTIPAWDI
UniProt P35372, whole entry: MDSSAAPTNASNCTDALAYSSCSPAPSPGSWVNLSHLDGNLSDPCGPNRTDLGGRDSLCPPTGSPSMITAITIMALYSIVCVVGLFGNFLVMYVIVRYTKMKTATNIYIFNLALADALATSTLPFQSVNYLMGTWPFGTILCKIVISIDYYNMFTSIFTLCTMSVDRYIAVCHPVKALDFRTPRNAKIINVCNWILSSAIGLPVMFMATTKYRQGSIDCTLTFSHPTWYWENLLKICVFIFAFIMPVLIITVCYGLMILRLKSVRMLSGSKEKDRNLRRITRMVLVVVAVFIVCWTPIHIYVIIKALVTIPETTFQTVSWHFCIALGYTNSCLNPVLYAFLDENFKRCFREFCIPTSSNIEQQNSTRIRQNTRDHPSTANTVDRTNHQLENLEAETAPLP

| Compound | target | test | system | setting | how to read | endpoint | result |
| --- | --- | --- | --- | --- | --- | --- | --- |
| CCOC(=O)/C=C/[C@H](C[C@@H]1CCNC1=O)NC(=O)[C@@H](CC(=O)[C@@H](NC(=O)c1cc(C)on1)C(C)C)Cc1ccc(F)cc1 | Replicase polyprotein 1ab, main protease (rep, Severe acute respiratory syndrome coronavirus 2, UniProt P0DTD1) | inhibitor | SARS-CoV-2 | below 40 µM, 48 h | – | reporter signal | no effect |
| CC(C)OP(=S)(OC(C)C)SCCNS(=O)(=O)c1ccccc1 | Acetylcholinesterase (ACHE, Homo sapiens, UniProt P22303) | enzyme activity, inhibitor, fluorescence | – | rat liver microsomes with NADPH | – | IC50 | inactive |
| O=CN1CC[C@]23c4c5ccc(O)c4O[C@H]2[C@@H](O)C=C[C@H]3[C@H]1C5 | Mu-type opioid receptor (Oprm1, Rattus norvegicus, UniProt P33535) | – | – | – | reference: morphine | affinity decrease | 290 fold |
| CCOP(=S)(OCC)Oc1cc(C)nc(C(C)C)n1 | Bche | – | ES1+/+ mice, plasma | subcutaneous, 50.0 mg/kg, 2.0 h, toxicant challenge | – | inhibition | 82 ± 3.1% |
| O=C1c2c(O)c(=O)ccn2N([C@@H]2c3ccccc3SCc3c2ccc(F)c3F)[C@@H]2COCCN12 | RNA-directed RNA polymerase L, endonuclease domain (Dabie bandavirus, UniProt I0DF35, T128S) | protein thermostability, thermal shift | – | together with: Mn2+ | reference: IAV endonuclease over SFTSV endonuclease | stabilization ratio | ~2 fold |
| O=C(CCc1ccc(O)cc1)N[C@@H](COC(=O)c1ccccc1)C(=O)NC1CCCCC1 | Replicase polyprotein 1ab, 3C-like proteinase (rep, Severe acute respiratory syndrome-related coronavirus, UniProt P0C6X7, R3428I) | inhibitor | – | concentration not given | – | enzyme activity | inactive |
| CCOP(=S)(OCC)Oc1ccc([N+](=O)[O-])cc1 | Bche | – | ES1-/- mice, plasma | subcutaneous, 12.5 mg/kg, 6.0 h, toxicant challenge | – | inhibition | 76 ± 4.4% |
| CNC(=O)c1cnc2c(=O)[nH]c(N)nc2n1 | Ricin, A chain (Ricinus communis, UniProt P02879) | differential scanning fluorimetry | – | 500 µM, pH 7.5, 2 µM protein | – | ΔTm | 0.4 °C |
| O=C(O)C1=CS[C@@H]2/C(=C\c3cc4n(n3)CSCC4)C(=O)N12 | blaC (Mycobacterium tuberculosis, UniProt P9WKD3) | inactivation, nitrocefin inactivation kinetics | – | – | – | KI | 200 nM |
| O=[As]c1ccccc1 (centres unmarked) | Protein phosphatase EYA2 (Homo sapiens, UniProt O00167) | phosphatase activity, inhibitor | – | concentration not given, Eya2 ED, together with: OMFP substrate | – | activity class | inactive |
| NC(=O)c1ccc[n+]([C@@H]2O[C@H](COP(=O)([O-])OP(=O)(O)OC[C@H]3O[C@@H](n4cnc5c(N)ncnc54)[C@H](O)[C@@H]3O)[C@@H](O)[C@H]2O)c1 | Inosine-5'-monophosphate dehydrogenase (guaB, Bacillus anthracis, UniProt A0A6L8P2U9) | substrate | – | pH 8.0, 25 °C | – | Km | 550 ± 50 µM |
| N=C(N)NCC(=O)NCC1(Nc2cccc3ccccc23)CCN(Cc2ccccc2)CC1 | Neuropeptide FF receptor 1 (NPFFR1, Homo sapiens, UniProt Q9GZQ6) | – | – | – | reference: mu and kappa opioid over NPFF1 | selectivity ratio | 7 to 43 fold |
| CCOP(=O)(OCC)Oc1ccc([N+](=O)[O-])cc1 | Bche | – | ES1-/- mice, plasma | subcutaneous, 0.2 mg/kg, 0.5 h, toxicant challenge | – | inhibition | 61 ± 5.5% |
| Cc1cc2c(-c3ccco3)cnc(N[C@H]3CCN(C)C[C@@H]3C(=O)NC3CCCCC3)c2[nH]c1=O | Mu-type opioid receptor (OPRM1, Homo sapiens, UniProt P35372) | binding, radioligand binding | – | 10 µM | – | inhibition | 24.3% |
